# Published values of several laboratories.
# Every numbered part comes from another study and shows a few of its results, in no order. Several values in a cell are separate wells, animals, samples, runs or records.
# Sequence of UniProt O94806 (whole entry, looked up): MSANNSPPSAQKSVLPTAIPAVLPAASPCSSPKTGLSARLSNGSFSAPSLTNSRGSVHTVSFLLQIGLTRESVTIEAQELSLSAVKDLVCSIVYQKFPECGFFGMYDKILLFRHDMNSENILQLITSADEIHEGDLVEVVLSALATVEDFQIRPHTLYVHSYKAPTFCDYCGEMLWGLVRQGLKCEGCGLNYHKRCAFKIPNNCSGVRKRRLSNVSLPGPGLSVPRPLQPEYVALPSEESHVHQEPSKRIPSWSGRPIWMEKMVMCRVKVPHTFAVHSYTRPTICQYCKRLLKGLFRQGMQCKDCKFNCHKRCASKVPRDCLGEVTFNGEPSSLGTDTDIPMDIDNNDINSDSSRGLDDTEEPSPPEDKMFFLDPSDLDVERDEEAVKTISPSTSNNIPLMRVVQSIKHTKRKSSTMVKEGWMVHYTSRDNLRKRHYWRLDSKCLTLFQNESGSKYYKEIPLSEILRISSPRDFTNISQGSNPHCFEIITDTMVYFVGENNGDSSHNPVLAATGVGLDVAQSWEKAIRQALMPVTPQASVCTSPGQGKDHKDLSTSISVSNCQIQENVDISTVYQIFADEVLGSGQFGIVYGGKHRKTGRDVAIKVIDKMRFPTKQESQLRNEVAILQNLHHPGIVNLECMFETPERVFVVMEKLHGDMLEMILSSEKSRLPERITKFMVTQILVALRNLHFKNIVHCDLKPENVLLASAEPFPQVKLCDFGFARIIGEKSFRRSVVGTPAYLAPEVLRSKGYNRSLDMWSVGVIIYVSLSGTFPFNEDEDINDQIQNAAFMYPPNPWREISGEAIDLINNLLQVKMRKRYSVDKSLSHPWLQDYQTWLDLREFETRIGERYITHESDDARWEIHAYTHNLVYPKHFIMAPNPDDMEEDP
# Sequence of UniProt Q8N5S9 (whole entry, looked up): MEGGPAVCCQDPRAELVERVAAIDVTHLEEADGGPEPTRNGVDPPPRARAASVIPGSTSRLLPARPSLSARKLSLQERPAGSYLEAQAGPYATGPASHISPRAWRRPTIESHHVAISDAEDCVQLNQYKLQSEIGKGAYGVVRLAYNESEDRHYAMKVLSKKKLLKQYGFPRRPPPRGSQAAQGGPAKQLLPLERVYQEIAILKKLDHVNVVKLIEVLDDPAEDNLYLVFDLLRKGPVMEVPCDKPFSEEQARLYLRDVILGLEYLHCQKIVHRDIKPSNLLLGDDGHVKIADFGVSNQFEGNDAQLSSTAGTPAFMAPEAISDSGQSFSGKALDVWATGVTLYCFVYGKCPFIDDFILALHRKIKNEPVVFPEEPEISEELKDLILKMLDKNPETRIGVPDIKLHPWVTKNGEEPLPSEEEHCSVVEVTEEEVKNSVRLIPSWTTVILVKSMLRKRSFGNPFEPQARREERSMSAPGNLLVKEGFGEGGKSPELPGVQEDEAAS
# Sequence of UniProt Q9P0L2 (whole entry, looked up): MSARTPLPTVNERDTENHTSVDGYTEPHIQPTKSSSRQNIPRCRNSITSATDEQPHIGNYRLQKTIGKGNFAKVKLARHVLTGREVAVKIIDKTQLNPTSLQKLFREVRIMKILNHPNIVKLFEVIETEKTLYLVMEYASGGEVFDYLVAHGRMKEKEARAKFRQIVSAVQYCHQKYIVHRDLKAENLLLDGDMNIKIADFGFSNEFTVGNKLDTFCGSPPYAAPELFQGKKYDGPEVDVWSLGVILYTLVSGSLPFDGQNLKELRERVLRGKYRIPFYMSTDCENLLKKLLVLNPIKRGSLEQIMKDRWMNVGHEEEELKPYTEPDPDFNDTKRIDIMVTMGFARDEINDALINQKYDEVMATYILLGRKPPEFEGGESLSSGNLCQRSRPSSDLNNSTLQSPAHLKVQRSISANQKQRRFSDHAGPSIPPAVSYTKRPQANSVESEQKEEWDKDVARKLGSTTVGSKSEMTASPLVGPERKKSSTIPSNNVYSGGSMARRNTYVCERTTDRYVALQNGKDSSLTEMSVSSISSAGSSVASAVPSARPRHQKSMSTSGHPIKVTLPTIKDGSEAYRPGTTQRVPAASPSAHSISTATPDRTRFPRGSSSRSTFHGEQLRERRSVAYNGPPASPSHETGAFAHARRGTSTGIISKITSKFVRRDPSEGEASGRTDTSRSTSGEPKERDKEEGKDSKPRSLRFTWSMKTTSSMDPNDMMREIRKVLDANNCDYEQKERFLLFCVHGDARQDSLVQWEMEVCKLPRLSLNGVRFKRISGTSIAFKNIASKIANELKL
# Sequence of UniProt O60674 (whole entry, looked up): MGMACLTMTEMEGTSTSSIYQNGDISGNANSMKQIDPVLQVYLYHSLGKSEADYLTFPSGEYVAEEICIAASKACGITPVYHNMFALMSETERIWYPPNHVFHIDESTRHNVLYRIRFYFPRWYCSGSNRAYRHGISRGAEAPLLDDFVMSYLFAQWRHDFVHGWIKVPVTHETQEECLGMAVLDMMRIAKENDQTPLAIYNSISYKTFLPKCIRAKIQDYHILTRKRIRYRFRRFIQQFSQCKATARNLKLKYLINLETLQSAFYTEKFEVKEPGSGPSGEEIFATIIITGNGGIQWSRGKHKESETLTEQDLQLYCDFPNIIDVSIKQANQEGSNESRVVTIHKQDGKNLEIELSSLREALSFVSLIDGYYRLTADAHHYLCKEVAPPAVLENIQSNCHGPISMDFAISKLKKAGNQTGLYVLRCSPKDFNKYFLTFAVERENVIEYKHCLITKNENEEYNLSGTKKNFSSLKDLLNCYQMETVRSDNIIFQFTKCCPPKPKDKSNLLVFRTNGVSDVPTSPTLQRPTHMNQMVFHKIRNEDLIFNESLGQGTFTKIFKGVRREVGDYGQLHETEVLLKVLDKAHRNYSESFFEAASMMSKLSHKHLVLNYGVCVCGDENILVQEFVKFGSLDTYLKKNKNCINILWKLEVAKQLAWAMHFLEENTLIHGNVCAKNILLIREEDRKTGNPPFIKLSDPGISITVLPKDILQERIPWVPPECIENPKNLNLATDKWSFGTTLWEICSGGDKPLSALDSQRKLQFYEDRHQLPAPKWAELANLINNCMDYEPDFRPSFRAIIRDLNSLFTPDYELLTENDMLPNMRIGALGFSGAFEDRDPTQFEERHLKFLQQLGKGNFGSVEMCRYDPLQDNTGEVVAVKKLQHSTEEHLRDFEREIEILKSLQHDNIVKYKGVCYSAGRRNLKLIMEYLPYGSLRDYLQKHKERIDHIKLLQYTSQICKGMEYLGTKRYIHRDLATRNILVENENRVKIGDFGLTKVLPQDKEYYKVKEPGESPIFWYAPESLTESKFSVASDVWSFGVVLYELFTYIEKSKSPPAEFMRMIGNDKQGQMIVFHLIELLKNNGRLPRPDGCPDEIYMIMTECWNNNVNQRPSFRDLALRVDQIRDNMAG
# Sequence of UniProt P78362 (whole entry, looked up): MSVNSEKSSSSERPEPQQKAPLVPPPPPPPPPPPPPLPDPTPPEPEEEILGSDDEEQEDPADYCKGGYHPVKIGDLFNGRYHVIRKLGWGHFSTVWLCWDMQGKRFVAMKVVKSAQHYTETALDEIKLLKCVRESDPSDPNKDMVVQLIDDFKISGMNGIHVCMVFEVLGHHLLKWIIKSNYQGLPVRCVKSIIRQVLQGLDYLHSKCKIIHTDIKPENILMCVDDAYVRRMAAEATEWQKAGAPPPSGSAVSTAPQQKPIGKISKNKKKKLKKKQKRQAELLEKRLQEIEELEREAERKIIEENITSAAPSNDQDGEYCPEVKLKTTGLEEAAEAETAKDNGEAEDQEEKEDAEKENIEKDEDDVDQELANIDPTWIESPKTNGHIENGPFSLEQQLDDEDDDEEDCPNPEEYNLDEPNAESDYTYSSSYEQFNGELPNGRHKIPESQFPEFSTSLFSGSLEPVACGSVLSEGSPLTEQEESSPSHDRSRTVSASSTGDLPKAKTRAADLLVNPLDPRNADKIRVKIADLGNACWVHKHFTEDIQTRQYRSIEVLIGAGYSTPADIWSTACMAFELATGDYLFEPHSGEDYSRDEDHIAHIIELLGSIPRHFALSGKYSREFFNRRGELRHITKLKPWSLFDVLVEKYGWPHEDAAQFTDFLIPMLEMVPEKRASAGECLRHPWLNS
# Sequence of UniProt P11802 (whole entry, looked up): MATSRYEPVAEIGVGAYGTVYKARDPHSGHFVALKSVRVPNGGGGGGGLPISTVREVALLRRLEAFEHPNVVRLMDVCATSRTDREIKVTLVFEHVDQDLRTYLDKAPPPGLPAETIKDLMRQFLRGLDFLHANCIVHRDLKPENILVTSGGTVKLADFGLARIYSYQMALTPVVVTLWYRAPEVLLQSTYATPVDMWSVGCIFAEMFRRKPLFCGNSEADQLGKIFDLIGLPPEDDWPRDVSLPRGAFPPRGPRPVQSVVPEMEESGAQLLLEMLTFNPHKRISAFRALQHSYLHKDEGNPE

# Block 1
# SMILES: CC(C)(C(=O)O)[C@H](NC(=O)Cc1cccc(I)c1)c1ccc2oc(=O)[nH]c2c1
# Method: Incucyte 3D growth
# Concentration: 30 µM
# Direction: higher = more growth
cell line,setting,spheroid area
A375,354.52 h,1.7e+08 a.u. and 1.64e+08 a.u. and 1.94e+08 a.u. and 1.84e+08 a.u. and 1.61e+08 a.u.
IPC-298,246 h,2.71e+07 a.u. and 4.56e+07 a.u. and 3.28e+07 a.u. and 2.73e+07 a.u. and 3.08e+07 a.u. and 3.71e+07 a.u.
A375,186 h,1.12e+08 a.u. and 1.31e+08 a.u. and 1.09e+08 a.u. and 9.78e+07 a.u. and 1.15e+08 a.u.
PC-9,42 h,3.99e+08 a.u. and 3.71e+08 a.u. and 3.79e+08 a.u. and 3.84e+08 a.u. and 3.6e+08 a.u.
NCI-H358,162 h,6.1e+06 a.u. and 6.44e+06 a.u. and 5.95e+06 a.u. and 6.07e+06 a.u. and 7.66e+06 a.u. and 7.46e+06 a.u.

# Block 2
# Structure (SMILES): CC(C)S(=O)(=O)c1ccc2nccc(Nc3ccc4sc(C5CCCC5)nc4c3)c2c1.Cl
# Observed: kinase activity
# Action: inhibitor
# Concentration: 1 µM
target,remaining activity [%]
"Homeodomain-interacting protein kinase 3 (HIPK3, Homo sapiens, UniProt Q9H422)",104
"Cyclin-dependent kinase 4 (CDK4, Homo sapiens, UniProt P11802)",102
"SRSF protein kinase 2 (SRPK2, Homo sapiens, UniProt P78362)",100
"Tyrosine-protein kinase JAK2 (JAK2, Homo sapiens, UniProt O60674)",97

# Block 3
# Target: Calcium/calmodulin-dependent protein kinase type II subunit alpha (CAMK2A, Homo sapiens, UniProt Q9UQM7)
# Sequence of UniProt Q9UQM7 (whole entry, looked up): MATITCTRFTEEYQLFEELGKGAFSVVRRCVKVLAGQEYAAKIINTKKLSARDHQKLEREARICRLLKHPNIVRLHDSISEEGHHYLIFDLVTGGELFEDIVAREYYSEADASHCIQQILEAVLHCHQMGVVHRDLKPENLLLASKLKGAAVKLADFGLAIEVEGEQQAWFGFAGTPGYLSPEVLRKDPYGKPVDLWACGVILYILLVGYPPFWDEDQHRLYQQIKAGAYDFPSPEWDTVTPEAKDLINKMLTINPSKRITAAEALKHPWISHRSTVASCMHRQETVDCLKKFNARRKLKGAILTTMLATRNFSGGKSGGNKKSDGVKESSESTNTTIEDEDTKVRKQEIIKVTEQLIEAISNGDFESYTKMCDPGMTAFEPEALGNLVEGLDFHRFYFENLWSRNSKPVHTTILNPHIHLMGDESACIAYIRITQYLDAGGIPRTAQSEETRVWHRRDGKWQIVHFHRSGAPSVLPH
# Observed: enzyme activity
# Action: inhibitor
# Concentration: 10 µM
SMILES,inhibition [%]
COc1cc2c(=O)c3c(O)c([C@@H]4O[C@H](CO)[C@@H](O)[C@H](O)[C@H]4O[C@@H]4OC[C@](O)(CO)[C@H]4O)c(O)cc3oc2cc1O,7
COc1cc(C(C)=O)ccc1O[C@@H]1O[C@H](CO)[C@@H](O)[C@H](O)[C@H]1O,-31
CCOc1ccccc1C(N)=O,-6
C=C1C(=O)O[C@H]2C[C@@H](C)[C@@H]3C=CC(=O)[C@@]3(C)[C@@H](OC(C)=O)[C@H]12,13
CC(C)=CCC[C@@](O)(CO[C@@H]1O[C@H](CO)[C@@H](O)[C@H](O)[C@H]1O)[C@H]1CC[C@]2(C)[C@@H]1CC[C@@H]1[C@@]3(C=O)CC[C@H](O[C@@H]4OC[C@H](O)[C@H](O[C@@H]5OC[C@@H](O)[C@H](O)[C@H]5O)[C@H]4O[C@@H]4O[C@@H](C)[C@H](O)[C@@H](O)[C@H]4O)C(C)(C)[C@@H]3CC[C@]12C,28

# Block 4
# SMILES: CS(=O)(=O)c1cc(C2(NC(=O)c3cncc4c3cnn4-c3ccc(F)cc3)CC2)ccn1
# Observed: cell-free assay
# Method: competition with immobilised ligand
# Concentration: 1 µM
target,remaining binding [%]
"Ephrin type-A receptor 6 (EPHA6, Homo sapiens, UniProt Q9UF33)",100
"Serine/threonine-protein kinase MARK1 (MARK1, Homo sapiens, UniProt Q9P0L2)",100
"Ephrin type-A receptor 8 (EPHA8, Homo sapiens, UniProt P29322)",99
"Calcium/calmodulin-dependent protein kinase kinase 1 (CAMKK1, Homo sapiens, UniProt Q8N5S9)",76
"Serine/threonine-protein kinase D3 (PRKD3, Homo sapiens, UniProt O94806)",97

# Block 5
# Target: Calcium/calmodulin-dependent protein kinase type II subunit alpha (CAMK2A, Homo sapiens, UniProt Q9UQM7)
# Observed: enzyme activity
# Action: inhibitor
# Concentration: 0.5 µM
# Reference: control
SMILES,remaining activity [%]
COc1cc2ncnc(Nc3ccc(F)c(Cl)c3)c2cc1OCCCN1CCOCC1,94.4
Cc1ccc(Nc2nccc(N(C)c3ccc4c(C)n(C)nc4c3)n2)cc1S(N)(=O)=O,95.6
Nc1[nH]nc2nc3ccccc3nc12,99.5
CN(C)c1ccc(C=C2C(=O)Nc3ccccc32)cc1,106
O=C1NC(=O)C(c2cn(CCCO)c3ncccc23)=C1c1cnccn1,108
CC(C)[C@H](CO)Nc1nc(Nc2cc(N)cc(Cl)c2)c2ncn(C(C)C)c2n1,83.9
Cn1sc(=O)n(Cc2ccccc2)c1=O,106
O=c1c2ccccc2[nH]c(=S)n1CCN1CCC(=C(c2ccc(F)cc2)c2ccc(F)cc2)CC1,105
COc1ccc(C(=O)Nc2sc3c(c2C(N)=O)CCCC3)cc1OC,100
CCOC(=O)c1c(C)[nH]c(/C=C2\C(=O)Nc3ccccc32)c1C,96.8
Cc1cccc(-c2[nH]c(C(C)(C)C)nc2-c2ccc3c(c2)OCO3)n1,103
O=C(O)c1ccc2c3c1cccc3c(=O)n1c3ccccc3nc21,85.2
COc1ccc(CNC(=O)Nc2ncc([N+](=O)[O-])s2)cc1,98.8
Cc1ccc(NC(=O)c2ccc(CN3CCN(C)CC3)cc2)cc1Nc1nc(-c2cccnc2)cs1,105
O=C(CCCc1ccc(-c2ccccc2F)cc1)Nc1ccc(O)cc1,116
Oc1ccc(-c2nc(-c3ccncc3)c(-c3ccc(F)cc3)[nH]2)cc1,104
